# Measurements pooled from the literature.
# A part holds a random share of what one study measured.

# Study 1
# Target: Sal-like protein 4, full length isoform B (SALL4, Homo sapiens, UniProt Q9UJQ4-2, residues 1-616)
# Technique: universal PBM
# Form: double-stranded DNA, one strand shown
# Matrix: in vitro
# Concentration: not given
# Setting: 8-mer, flanks averaged, mean of replicates
# Reading: higher = stronger binding
Strand,E-score
ACTCACTG,-0.0948
AGGCCTGA,-0.123
ATCTGCTC,0.0279
CGTGGGAC,-0.24
TAAATAGA,0.163
AGAGCGAC,-0.171
AGCATGCT,-0.0599
CCGGTGCA,-0.317
ATATCAAA,0.36
ACCATATC,0.157
CAAGTTCA,-0.0104
ACGGTAGG,-0.175
CTCCAGCA,-0.0848
CATTAAGG,0.131
AGGCGGCG,-0.332
CACATCGG,-0.222
TACTTAGA,0.0825
AACTACGA,0.168
CCACATCG,-0.166
TATCTTAA,0.275
ATCGACGA,0.00781

# Study 2
# Target: Interferon regulatory factor 7, full length, phosphomimetic (IRF7, Homo sapiens, UniProt Q92985, residues 1-503, S101K/S471D/S472D/S475D/S476D/S477D/S483D/S484D/S487D)
# Sequence of UniProt Q92985 (whole entry, unmodified, looked up): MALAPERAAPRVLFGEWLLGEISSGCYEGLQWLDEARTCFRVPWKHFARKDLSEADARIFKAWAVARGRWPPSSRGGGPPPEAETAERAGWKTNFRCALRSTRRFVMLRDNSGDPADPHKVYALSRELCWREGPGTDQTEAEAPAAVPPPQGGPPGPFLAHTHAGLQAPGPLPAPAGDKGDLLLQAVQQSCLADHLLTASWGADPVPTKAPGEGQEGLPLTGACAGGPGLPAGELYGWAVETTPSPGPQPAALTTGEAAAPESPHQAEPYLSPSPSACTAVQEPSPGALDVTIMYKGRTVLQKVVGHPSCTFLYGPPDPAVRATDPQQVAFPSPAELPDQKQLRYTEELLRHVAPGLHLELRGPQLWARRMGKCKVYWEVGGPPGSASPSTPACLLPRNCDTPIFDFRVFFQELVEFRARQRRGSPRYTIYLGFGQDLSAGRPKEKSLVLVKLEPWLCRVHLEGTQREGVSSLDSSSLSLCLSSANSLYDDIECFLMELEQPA
# Technique: protein-binding microarray
# Form: double-stranded DNA, one strand shown
# Matrix: in vitro
# Concentration: 250 nM
# Setting: 60-bp whole probe
# Added: salmon DNA 0.4 mg/ml
# Baseline: random background probes
# Reading: higher = stronger binding
# All sequences stand within: GCCTAGCAC … GTCTTGATTCGCTTGACGCTGCTG
Strand,log fluorescence
GACGTTATCGGGTATCGAGACGTGCTA,0.195 z-score
GGTCTTCTGGGCTGTTTGATCGTGCTA,-0.505 z-score
TTAGGTCTGGGGACTGGGTTAGTGCTA,-0.387 z-score
GCGCCTGTAGCCCCTCCAGGGTGCTAG,-0.614 z-score
GCACTTTGGGAGGCCGAGGCGTGCTAG,-0.0884 z-score
GACGATCTCAGTTACGAGACGTGCTAG,0.0335 z-score
GACGGCCTGGACTTTCGGGACGTGCTA,-1.04 z-score
GACGATATCAGGATCGAGACGTGCTAG,0.0398 z-score
CCTTCTCTAACCTCTCTAATAGTGCTA,0.975 z-score
TTAGGACTGGGACTGGGTTGGTGCTAG,-0.0175 z-score
TGGGTTGTAGGTTTTCTGAAGGTGCTA,-0.404 z-score
CCCTGTTTCTACTGTCTGTTTGTGCTA,1.63 z-score
CCTCCCTCTCCCGGAGTTCCGTGCTAG,0.0769 z-score
AACGAACTGAGTTTCGAGACGTGCTAG,3.62 z-score
TTAGGTCTCGGAATCGGTTAGTGCTAG,2.98 z-score
TCATTTCTATCTCTGTTACTGTGCTAG,1.9 z-score
TTAGGTTTCGGTATCGGTTTGTGCTAG,11.3 z-score
GACGATTTCGGATTTCGAGACGTGCTA,1.79 z-score
TTAGGACTGGGTCTCGGTGAGTGCTAG,-0.175 z-score
ACTCAGTAACATTATTGTAGGTGCTAG,-0.0779 z-score
GACGCTATCAGTATCGAGACGTGCTAG,0.0289 z-score
TTAGGTATTGGTCTCGGTTAGTGCTAG,1.68 z-score

# Study 3
# Target: RNA binding protein fox-1 homolog 2, RRM domain, GST-SBP tag (RBFOX2, Homo sapiens, UniProt O43251-10, residues 100-194)
# Technique: RNA Bind-n-Seq
# Form: RNA
# Matrix: in vitro
# Concentration: 365 nM
# Setting: natural RNA segment, single round, ends assumed
# Baseline: no-protein control
# Reading: higher = stronger binding
# All sequences stand within: GGGAGUUCUACAGUCCGACGAUC … UGGAAUUCUCGGGUGCCAA
Strand,RBNS enrichment (R)
GCGGGGCUGAGCCACCCCCACAACCCUACCUUCUUCAUCCCCUCUGUCCCGUCUGUGGCAGAGGUUUCUGGCCAGAGGACCCUUCCCGGUUCAUCUCCCCUCAUCUUCUU,1.01
GGAUUGCACAUUUUCUCUAUGAUGUUUGCAACAGAGAAAUUUUCAUUUUAAUGAUACUCUUCCUUUCUUGAAAGUUACAUGUCCUCAUUUCUGUUUCUGCUUCUCCCUUG,0.881
GUCACUGUGCCCAGCAGGGUGGGCUGUGCCCAGCAGGAGUCAGGCUAAGAAACGCCAGGUCUGCCUGUUCUUGCUGGGCAAUGGCUGAUGGCUGCCAGUUUCUGCUGAUA,0.492
CAUUUAAAAUUCCUUUUAAGAUUCGUGGAUUUUAUUUUUAUUAAGUAUAUAGAUAUAUAAAGUACUGUAGUUUACAGCUAGGCCUUGAGAUAUCUUUUUAGGAUCUGUUA,0.85
CAGUGAGGUGCCCAGAGCUGCACCCUUUCCUCCAUUUCCCAUCCCCCAUCUCCUCAACCACCAGGGUCUGAGUUCUAGCAGGGUCCUGGGGGUAUCCCACUGCUAUACUG,0.736
AUAUGGUAUAUGUUUCUGAUUUUUAAUAUUUCUUUUGAGAAAUUCUGAGUUCUGAUGUAGGAGCUUUCCUGUGAUUUCUGUUUCACGUUCCUUCCUGUCACACCCUCCUU,0.712
UAAUGAACAUGAGCAGAAGCCUAAGUUGGGACAGCUCAGAACCAAGCAAGAGGGGGCCGUUUUAAUGAAUUAGAUUGAAAAAUAGGCCUAAGCCGUUUGUACCUUAGUUU,0.669
GGGCACACGCCUCAGAGCUGCCACAUGCUAGGGACAAACGCUACUGCCACAGGAAAACAGUGGUAGCUUAGAGAGGGCUCAGAUCCCUGGGUGCCAGUUUUUUAAUCACU,0.464
UCUCCCCCAUCCCCUCCCGGCUUAUAGGCCCCACAGGUGCUAUUUGUUGUGCUGGCCCAGGCGUGGGGCUACCAAGCAAAGGCUUGGCAUAUACCAAAGGCCAGCUGCAU,2.96
UGCAUUCGUAGAACUUCUAAGGGUCCCAGGAUCACUUUUAAGGGAUUUUUUUUUUAUAGUUUAAAUAAAGUCAGCUGAAUCUACAUGUCUCUUGUUUUAUUUCUCUCUAA,0.786
GCAGCACAAAGGGCAAGGAGAGCCCCAACCCCAGUUGCUCCAAGCUCCCCAAUCACUUAGUCUUCACCUACCCCAUUCCAAUAAGCCUCAUUUCUUCUCAUCCCCUGCUU,1.63
UCAGUCUAGCUUUUAAUUAAGUUAUUUUGUAUAGCUUAAUUUGUAAAACAUUUUAUGUUUUUUAGAUGCUUUAUUAAAUACAUGGCCAAACCAAAUAACAUCUUUCAGUA,0.753

# Study 4
# Target: RING finger protein unkempt homolog, zinc fingers 1-6, GST-SBP tag (UNK, Homo sapiens, UniProt Q9C0B0, residues 30-357)
# Sequence of UniProt Q9C0B0 (30-357, looked up): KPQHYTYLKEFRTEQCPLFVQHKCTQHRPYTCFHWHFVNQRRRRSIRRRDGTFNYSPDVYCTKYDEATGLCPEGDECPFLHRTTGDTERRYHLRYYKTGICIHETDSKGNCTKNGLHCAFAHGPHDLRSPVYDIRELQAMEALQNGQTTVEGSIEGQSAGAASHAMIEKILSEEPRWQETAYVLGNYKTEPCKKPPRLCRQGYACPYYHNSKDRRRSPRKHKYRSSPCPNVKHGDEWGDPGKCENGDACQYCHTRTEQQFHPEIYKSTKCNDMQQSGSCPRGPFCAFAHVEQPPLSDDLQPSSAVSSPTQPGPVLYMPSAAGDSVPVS
# Technique: RNA Bind-n-Seq
# Form: RNA
# Matrix: in vitro
# Concentration: not given
# Setting: RNA with constant flanks, human-mouse chimeric sites, ends assumed
# Baseline: input RNA pool
# Reading: higher = stronger binding
# All sequences stand within: GGGAGUUCUACAGUCCGACGAUC … CAACAGAGGAUUGAGCAUCA
Strand,bound/input enrichment
AGCACAACACCAGCUAAGCUAAGAAAUCCUUGUACAAGUGAACAGAACUGCACCAGCCCAUUUAGCUACAAAAAUGUGCUUAGUCUUACUGACAGAGGAGAGUUUUUCAAUGAACUUGUU,1.19 ratio
AAAGAACUACUGAGGCAAGGCAGCAAAUUUAGGAGAGAUGUAUCAACAAUAUUGAUAGAGUUAGGAUUCCAAAUUAAAAAGAAAACUAAGACAUUAUACAUCAACAAAGCCAAUGUGUGG,5.09 ratio
UUUGUUUUUAUGCUAAGCACACGUGCUGGUGGUCUUGGCAUCAAUCUUGCAACUGCUGAUGUAGUCAUUUUAUAUGACUCAGAUUGGAAUCCGCAAGUUGAUCUUCAGGCUAUGGACCGU,0.193 ratio
AAAGAACCUCUCUCUGAUGAAGAUGAGGACAGUGAUGAUGAUGUUGAACCCAUUUCUGAAUUUCGAUUUGUGCCUAGUGAUAAGUCAGCAUUGGAGGCGAUGUUCACAGCAAUGUGUGAG,0.326 ratio
UAAGUUAUUUUGUACAGCUUUGUAAAUUCUUAACAUUUUUAUAUUGCACAUUUUAUGUUGUUUGGGUGCUUUAUUAAAUUAAGUACAUAGCUAAGGUAAUGAACAUCUUUUUCAGUAAUU,0.719 ratio
GCGGCAGAAUCAUGGAGGACAUAAUGCACUUGCCCAGAGCGCGCGUCAACGCCAGCAUGUUACCACAGUAUAUCGACCGGCCCGUGUGCUUCGUGGGGAGGCUGGAAAAGAUUCAUCCCA,0.125 ratio
GAGCCAAGCCGGCAGUUUGUAAAGGACUCAAUUCGGCUGGUUAAAAGAUGCACCAAACCCGACAGAAAAGAAUUCCAGAAGAUUGCCAUGGCAACAGCUAUAGGAUUUGCUAUCAUGGGA,0.167 ratio
AGAGCCCAGGAUGUUGAUGCUACAAAUCCAAAUUAUGAAAUUAUGUGUAUGAUCAGAGACUUCAGAGGAAGUUUGGAUUACAGACCCCUAACAACAGCAGAUCCUAUUGAUGAACAUAGG,0.562 ratio
GCAAAGGAUGAUGAGGCAGCUGCAGUUGCCCUUUCCUCUCUCGUUCAUGCUUUGGAUGACUUAGACAUGGUCGCCAUCGUCCGAUAUGCUUAUGACAAAAGAUCUAAUCCUCAAGUUGGU,0.119 ratio
UCAACAGACAACAUCAAAUACCAGCCUAAAGGGGGGCAGGUACAAAUUGUUACUAAGAAAAUAGACCUAAGCCAUGUGACAUCCAAAUGUGGCUCUCUGAAGAACAUCCGUCACAGGCCA,0.507 ratio
UGUAGUUUCUUGAUUUAUCAUUUUUCUUGCUCGGGUUUUUCCUUUAGGAAAAGCCUAAAGAUUAGACUGUAAGAAAAACAGAAGCCAUGUUUCGAAGACCUGUGUUACAGGUAUUUCGUC,0.15 ratio

# Study 5
# Target: PABPC1L2, full length, GST fusion (mouse, UniProt A0ABA7IW68)
# Technique: RNAcompete
# Form: RNA
# Matrix: in vitro
# Concentration: 20 nM
# Setting: 7-mer, probes averaged, single round
# Baseline: mean of 7-mers
# Reading: higher = stronger binding
# Target sequence (chain): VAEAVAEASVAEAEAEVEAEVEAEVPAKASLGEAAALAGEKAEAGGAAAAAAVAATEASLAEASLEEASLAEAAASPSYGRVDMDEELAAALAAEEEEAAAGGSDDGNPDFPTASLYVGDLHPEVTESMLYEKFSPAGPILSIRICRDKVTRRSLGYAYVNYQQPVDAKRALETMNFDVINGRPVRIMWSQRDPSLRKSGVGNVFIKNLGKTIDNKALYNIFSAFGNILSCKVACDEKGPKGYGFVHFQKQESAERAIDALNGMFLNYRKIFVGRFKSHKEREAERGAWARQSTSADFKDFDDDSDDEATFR
Strand,7-mer Z-score
ACAGGUA,0.138
ACGUUGG,-0.0319
AGAUUGG,-0.103
CUCCAUC,-0.356
GAAUCUG,-0.182
ACCCGAA,0.0478
GUUUCGA,-0.298
UGGAUGC,0.16
CACCAGG,-0.0844
GUUGGGG,0.111
AUGGCGC,-0.0264
UGUGACA,0.0116
GUCAUCU,-0.258
AAGAGCG,0.544
AGUCUGA,-0.177
CCGAAUU,-0.2
CCGCGGA,-0.338
ACCUUGG,-0.233
CCAAGUC,-0.3

# Study 6
# Target: Protein C-ets-1 (ETS1, Homo sapiens, UniProt P14921, residues 1-441, Y397A, full length assumed)
# Technique: protein-binding microarray
# Form: double-stranded DNA, one strand shown
# Matrix: in vitro
# Concentration: not given
# Setting: k-mer, scored over probes, only values ≥0.25
# Reading: higher = stronger binding
# Residues (chain): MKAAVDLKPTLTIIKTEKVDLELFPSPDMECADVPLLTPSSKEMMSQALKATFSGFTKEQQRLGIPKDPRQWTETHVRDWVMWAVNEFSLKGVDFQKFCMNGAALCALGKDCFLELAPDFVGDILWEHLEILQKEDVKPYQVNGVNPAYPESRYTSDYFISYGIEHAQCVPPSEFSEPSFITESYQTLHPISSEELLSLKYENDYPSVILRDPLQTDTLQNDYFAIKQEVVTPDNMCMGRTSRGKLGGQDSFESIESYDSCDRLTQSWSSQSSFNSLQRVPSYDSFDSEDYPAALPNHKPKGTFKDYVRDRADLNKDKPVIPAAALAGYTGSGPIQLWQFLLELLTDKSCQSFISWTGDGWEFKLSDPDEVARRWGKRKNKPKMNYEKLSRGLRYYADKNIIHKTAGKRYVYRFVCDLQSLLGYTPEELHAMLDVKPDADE
Strand,E-score
CAAATATC,0.285
CGATTTGC,0.25
AGGATGTA,0.271
CGTTTGGC,0.264
TCCCCGCA,0.263
ACGCCCAC,0.279
TCGAACAA,0.302
TAATGTAA,0.257
ACCGGCAC,0.27
GTGCCAAC,0.274
ATATGTCG,0.346
CGGATATA,0.35
CGACAAAA,0.457
GGTTGTCA,0.315
CTGTCACA,0.284
GTTACAAC,0.297
ACGGCAAA,0.343
TATGTCGA,0.272

# Excerpt of the above (study 6):
Strand,E-score
GTGCCAAC,0.274
TAATGTAA,0.257
ACGCCCAC,0.279
GTTACAAC,0.297
CGGATATA,0.35
CTGTCACA,0.284
ACCGGCAC,0.27
ACGGCAAA,0.343
TCGAACAA,0.302
CGATTTGC,0.25
TATGTCGA,0.272
